{"data": "Experimental data of several laboratories", "note": "Every numbered part comes from another study and shows a few of its results, in no order. Positions count from the first letter of the parent shown."}
{"data": "Sample 1", "target": "CCNB2, cyclin fold, Cln2 fusion (human)", "technique": "yeast growth competition, sequencing", "matrix": "yeast", "setting": "weak parent motif", "reference": "not given", "reading": "higher = stronger binding", "parent": "NPAT docking peptide (human); PCHRRVLCFDSTT; partner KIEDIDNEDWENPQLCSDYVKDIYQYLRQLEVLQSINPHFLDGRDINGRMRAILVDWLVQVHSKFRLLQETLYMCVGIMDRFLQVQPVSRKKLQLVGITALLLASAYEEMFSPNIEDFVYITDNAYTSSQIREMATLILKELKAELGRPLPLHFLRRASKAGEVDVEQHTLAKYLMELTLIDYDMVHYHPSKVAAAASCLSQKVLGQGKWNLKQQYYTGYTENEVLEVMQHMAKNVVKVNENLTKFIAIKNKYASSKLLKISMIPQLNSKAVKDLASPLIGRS"}
{"Change": "V6A", "normalised enrichment score": 0.409}
{"Change": "D10A", "normalised enrichment score": 0.873}
{"Change": "L7A", "normalised enrichment score": 0.089}
{"Change": "P1A", "normalised enrichment score": 0.00852}
{"Change": "T13A", "normalised enrichment score": -0.0627}
{"Change": "T12A", "normalised enrichment score": 0.0701}
{"Change": "F9L", "normalised enrichment score": 0.359}
{"Change": "R5A", "normalised enrichment score": 0.244}
{"data": "Sample 2", "target": "TEF, bZIP domain (human)", "technique": "DHFR protein complementation", "matrix": "yeast", "setting": "single substitutions, most at no-binding floor", "reference": "wild-type JUN-FOS pair", "reading": "higher = stronger binding", "parent": "JUN, bZIP domain (human); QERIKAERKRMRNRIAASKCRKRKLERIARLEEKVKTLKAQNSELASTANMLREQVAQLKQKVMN; partner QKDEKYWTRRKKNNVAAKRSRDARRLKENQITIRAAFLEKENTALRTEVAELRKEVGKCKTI"}
{"Change": "A40L", "binding fitness [natural log]": -1.48}
{"Change": "L31P", "binding fitness [natural log]": -1.5}
{"Change": "R53L", "binding fitness [natural log]": -1.48}
{"Change": "L31K", "binding fitness [natural log]": -1.55}
{"Change": "A29W", "binding fitness [natural log]": -1.21}
{"Change": "A57S", "binding fitness [natural log]": -1.5}
{"Change": "Q55D", "binding fitness [natural log]": -1.53}
{"Change": "E32C", "binding fitness [natural log]": -1.39}
{"data": "Sample 3", "target": "Ras GTPase-activating protein-binding protein 1, full length (G3BP1, Homo sapiens, UniProt Q13283)", "technique": "RNA Bind-n-Seq", "molecule type": "RNA", "matrix": "in vitro", "tested at": "200 nM", "setting": "whole 134-nt RNA, ends assumed", "with": "150 mM KCl", "reference": "input library", "reading": "higher = stronger binding", "shared flanks, not repeated": "GGGAGUUCUACAGUCCGACGAUC … UGGAAUUCUCGGGUGUCAAGG", "chain of UniProt Q13283 (whole entry, looked up)": "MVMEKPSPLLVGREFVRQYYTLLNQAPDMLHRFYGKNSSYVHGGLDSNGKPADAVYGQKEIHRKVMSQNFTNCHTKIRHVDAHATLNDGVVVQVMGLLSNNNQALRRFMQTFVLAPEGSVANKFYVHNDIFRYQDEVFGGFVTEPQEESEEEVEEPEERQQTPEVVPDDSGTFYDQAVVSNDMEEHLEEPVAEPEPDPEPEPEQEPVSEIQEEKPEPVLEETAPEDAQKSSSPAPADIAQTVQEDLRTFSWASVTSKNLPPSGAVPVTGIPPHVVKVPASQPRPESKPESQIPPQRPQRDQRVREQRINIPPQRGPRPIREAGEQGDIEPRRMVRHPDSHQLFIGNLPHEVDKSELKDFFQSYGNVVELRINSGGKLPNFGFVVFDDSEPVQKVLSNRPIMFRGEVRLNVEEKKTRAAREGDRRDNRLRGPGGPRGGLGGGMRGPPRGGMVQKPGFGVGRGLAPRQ"}
{"Oligonucleotide": "GGCGGAGCAGCUGAUGGAGGAGUGGAACGAAGACCUAGACGGCAUGGAGGGUUUCGUGCUGGAGGGCAAGAAGUUUGCGCGGCUGCCGGA", "log2 enrichment": -0.735}
{"Oligonucleotide": "GCAGGAAGUAAAAACAAAUGGAAAUGCUUCGGAUAGUGGCAGGGGAGGGGGUUGCUAAGGAAAGGGUGGGAUGGGAGUGGGUAAAGAGUU", "log2 enrichment": 1.02}
{"Oligonucleotide": "AGUCCUGUGCUACACAUCGUAUGUACCGAAUCGGGGAAAGGGGAAAAAGGGGAGGGGAAAGUAUUAUGUUACGCCGUUCGGAUCUGCACU", "log2 enrichment": 0.616}
{"Oligonucleotide": "CCUCAAGUCCUGUGCUACACAUCGUAUGUACCGAAUCGGGGCGGGCGGGCGGAAAGUAUUAUGUUACGCCGUUCGGAUCUGCACUUCCAG", "log2 enrichment": 1.43}
{"Oligonucleotide": "UGGAGGAGCCAUAGAAUAUUAAGGAUGAAUUCAGGAAGGCCUGAGACCAUGGAAAACUUGCCUGCUCUCUACACUAUUUUCCAAGGAGAG", "log2 enrichment": -0.482}
{"Oligonucleotide": "CUGUGCUACACAUCGUAUGUACCGAAUCGGGGCCCCCCCGGGCCCCCCCGGGGCCCCCCCGGAAAGUAUUAUGUUACGCCGUUCGGAUCU", "log2 enrichment": -1.4}
{"Oligonucleotide": "UGUGCUACACAUCGUAUGUACCGAAUCGGGGUUUUUUUGGGGUUUUUUUGGGUUUUUUUGGGGAAAGUAUUAUGUUACGCCGUUCGGAUC", "log2 enrichment": -0.592}
{"Oligonucleotide": "CCUCAAGUCCUGUGCUACACAUCGUAUGUACCGAAUCGGCGGGGCGGGGCGGAAAGUAUUAUGUUACGCCGUUCGGAUCUGCACUUCCAG", "log2 enrichment": 0.225}
{"data": "Further values, each from its own experiment"}
{"Molecule": "MSPHRVPNY", "target": "HLA class I histocompatibility antigen, A alpha chain, allele A*80:01 (Homo sapiens, UniProt P04439)", "observed": "peptide-MHC binding", "molecule type": "peptide", "tested at": "concentration not given", "endpoint": "binding", "result": "inactive"}
{"note": "Some of these lines once more (sample 3):"}
{"Oligonucleotide": "CUGUGCUACACAUCGUAUGUACCGAAUCGGGGCCCCCCCGGGCCCCCCCGGGGCCCCCCCGGAAAGUAUUAUGUUACGCCGUUCGGAUCU", "log2 enrichment": -1.4}
{"Oligonucleotide": "UGGAGGAGCCAUAGAAUAUUAAGGAUGAAUUCAGGAAGGCCUGAGACCAUGGAAAACUUGCCUGCUCUCUACACUAUUUUCCAAGGAGAG", "log2 enrichment": -0.482}
